Assay results pooled from the literature.
Numbered parts are unrelated; each lists some results of a single study. Changes are numbered by the printed parent chain.

Series 1
Target: PABPC1L2, full length, GST fusion (mouse, UniProt A0ABA7IW68)
Method: RNAcompete
Form: RNA
Medium: in vitro
Concentration: 20 nM
Setting: 7-mer, probes averaged, single round
Relative to: mean of 7-mers
Direction: higher = stronger binding
Target sequence (chain): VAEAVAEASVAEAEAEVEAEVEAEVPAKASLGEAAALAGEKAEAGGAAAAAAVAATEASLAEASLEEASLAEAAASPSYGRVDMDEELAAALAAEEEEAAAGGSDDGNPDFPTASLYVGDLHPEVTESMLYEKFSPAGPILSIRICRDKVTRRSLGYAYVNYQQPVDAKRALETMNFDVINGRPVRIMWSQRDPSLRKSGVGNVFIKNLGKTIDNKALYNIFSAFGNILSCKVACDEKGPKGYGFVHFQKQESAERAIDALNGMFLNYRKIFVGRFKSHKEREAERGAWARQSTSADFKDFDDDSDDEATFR
Oligonucleotide | 7-mer Z-score
GCCUGUC | -0.376
UUAUACA | -0.0283
CCACUUC | -0.18
ACUGAAA | 0.602
AAUAAGC | 0.379
UGGGCUA | 0.017

Series 2
Target: RNA binding protein fox-1 homolog 2, RRM domain, GST-SBP tag (RBFOX2, Homo sapiens, UniProt O43251-10, residues 100-194)
Method: RNA Bind-n-Seq
Form: RNA
Medium: in vitro
Concentration: 365 nM
Setting: natural RNA segment, single round, ends assumed
Relative to: no-protein control
Direction: higher = stronger binding
All sequences stand within: GGGAGUUCUACAGUCCGACGAUC … UGGAAUUCUCGGGUGCCAA
Construct (chain): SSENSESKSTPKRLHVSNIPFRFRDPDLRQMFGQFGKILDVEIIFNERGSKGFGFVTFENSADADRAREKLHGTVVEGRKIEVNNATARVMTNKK
Oligonucleotide | RBNS enrichment (R)
AGACUGUCUAGAAAUUUUGUGUAUUAUGAGGGGAAAAAAGGAAAAGCUUGAAUCUGUGUAGUCUCUGACCCUAAGUGAGAAUGACUUUGGUGUCAGGGUCCUGUGGAGUU | 2.7
CUGCAAAAAAAAGUUAAGCCAUAACAGCCUUUUUAUAUUUUAAUUUGUCACCUUUGCAUUGCAGAAUAAAUACCCAAUAACCGUUUUUAUAGGAGUUGCUCCUCUUUGCA | 2.6
CCCAGUGUCACUAGAUGUCACACACAUUUGUGGUGCUUUGAUGUUUGCAAGUCUAACCUCUGAACAUAAAUUUGGUCAAAUAAUUGGAACAAAGGGAAACAGAUACUUGA | 0.303
UAGAAAUAUUUCUGAACAUAUCAUGUAAUUUUUUUAAGAUAACUGUGAAAACAUUACAUACAUGUAUAUAUUUAGACAUGAGCUGCUGCUAUAUAUUGAAUGGGCCCUUU | 0.618
CUGCGGGGGGAGGACACACGGAUGCUCAGGCCCAGGCUUUGCCAGGUCCGAAGCGGGCCCCUCUCUGUCCUGCCUCUUUUCACCUGCUCACGCCCUCCCACCCCCACCCU | 0.219

Series 3
Target: CCND3, cyclin fold, Cln2 fusion (human)
Method: yeast growth competition, sequencing
Medium: yeast
Setting: weak parent motif
Relative to: not given
Direction: higher = stronger binding
Parent: CDC42EP1 docking peptide (human); SLVVGKLSFDSSP; partner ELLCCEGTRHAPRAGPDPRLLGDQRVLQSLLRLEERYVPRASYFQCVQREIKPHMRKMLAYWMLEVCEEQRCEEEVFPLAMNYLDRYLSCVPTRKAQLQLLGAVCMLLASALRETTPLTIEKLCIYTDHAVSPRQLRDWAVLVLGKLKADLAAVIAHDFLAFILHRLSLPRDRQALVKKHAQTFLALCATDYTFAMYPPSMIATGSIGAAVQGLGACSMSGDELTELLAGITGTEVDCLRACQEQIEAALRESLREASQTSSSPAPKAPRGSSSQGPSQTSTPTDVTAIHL
Substitution | normalised enrichment score
G5A | -0.396
K6A | -0.197
S12A | -0.168

Mixed results
Molecule | target | assay | test system | setting | how to read | measurement | value
PhoQ, residues 284 288 289 292 302 303 AMDMFI | PhoP, residues 12 14 15 18 19 VHSCL (Escherichia coli, UniProt P23836) | Sort-seq, refers to: YFP reporter | E. coli | PhoQ-PhoP variant library, together with: 10 µM Mg2+ | relative to: high Mg2+ state, higher = stronger signaling | fold induction | 0.575
